{"data": "Measurements collected from several papers", "technique": "steady-state kinetics", "B1": "GTPBP3 E315A (Homo sapiens, UniProt Q969Y2); chain TRRSSGAPAPGSGATIFALSSGQGRCGIAVIRTSGPASGHALRILTAPRDLPLARHASLRLLSDPRSGEPLDRALVLWFPGPQSFTGEDCVEFHVHGGPAVVSGVLQALGSVPGLRPAEAGEFTRRAFANGKLNLTEVEGLADLIHAETEAQRRQALRQLDGELGHLCRGWAETLTKALAHVEAYIDFGEDDNLEEGVLEQADIEVRALQVALGAHLRDARRGQRLRSGVHVVVTGPPNAGKSSLVNLLSRKPVSIVSPEPGTTRDVLETPVDLAGFPVLLSDTAGLREGVGPVAQEGVRRARERLEQADLILAMLDASDLASPSSCNFLATVVASVGAQSPSDSSQRLLLVLNKSDLLSPEGPGPGPDLPPHLLLSCLTGEGLDGLLEALRKELAAVCGDPSTDPPLLTRARHQHHLQGCLDALGHYKQSKDLALAAEALRVARGHLTRLTGGGGTEEILDIIFQDFCVGK", "B2": "putA G1011P (Rhodobacter capsulatus, UniProt D5AN87); chain MTDLSALGPKAKFAPEAEVLQALVAQAALPQPQLDRIAARGADLVARIRAEAKPSLMEHFLAQYGLSTREGVALMCLAEAMLRVPDTATIDALIEDKIAPSDWGKHLGTAASSLVNASTWALMLTGKVLDDGAGGIAGTLRGAMRRLGEPVIRAAVGQAMREMGRQFVLGETIEKALERAEKREAEGYTFSYDMLGEAALTAADAERYRLAYAQAITAIGKAATRGSIAANPGISIKLSALHPRYEVAQEARVMAELVPVVRDLARAAARAGIALHIDAEEQDRLALSLRVMAAVIADPETAGWEGFGAVVQAYGKRAGAAIDALAAMARAAGRRINIRLVKGAYWDAEMKRAQVEGHPGFPLFTSKTGTDVAYICLAAKLFGLNDCIYPQFATHNAHTVAAVLEMAAGRPFEFQRLHGMGARLHDIVLRETGGRCRIYAPVGAHRDLLAYLVRRLLENGANSSFVNQIVNESVPPAEVAACPFAALPTARAPRGLLAPADLFGAGRVNAQGFDLSDPEVLARIEAARDVTLPDAAPIVAGPVSGTLRPVRNPATGAVVAQVTEADAATVALALDAAQVWSAPAATRAAVLCRAADLYEENFGPIFAALAQEAGKTLGDAVSELREAVDFLRYYAAEGAADTRPPRGAVVAISPWNFPLAIFTGQVAAALMAGNAVLAKPAEQTPIIAALAVRLLHQAGVPETALQLLPGDGPTVGAALTRDPRVAGVVFTGSTETAQIIARAMAAHLAPGTPLIAETGGLNAMVVDSTALPEQAVRDVVASAFRSAGQRCSALRCLYVQDDIAPHLIGMLKGAMEELVSGDPARLSTDVGPVIDAEAKAGIETYLAANKARILHRSTAPEGGHFVAPALLQVGGIADLEREIFGPVLHLATFAAEDLPAVIAAINARGYGLTFGLHSRIDARVETVAETIRAGNIYVNRNQIGAVVGSQPFGGEGLSGTGPKAGGPLYLNRFYAPEPVVAVGGWTEAATPILPEARETQLDEIFLPGPTPELNRLTRHQRGPILCLGPGAEAASAQAAAVVALGGQAVQASGAVSPKALETLTPLAGVLWWGAAEMGRAYAQALAVRPGPLVPLITAKPDLAHVAHERHLCVDTTAAGGNAALLAG", "B3": "enzyme (Bacillus pumilus, UniProt A8FFI9); chain EARSIAWSVDEFFKNREGTFVIQEVKEKSPWVYNKKRAKERFAPQSTFKVANALIGLQTGAVRDEYDIKYWDGVKREIDNWNRDHTLGSGMRDSVVWYYQAMARDIGEERMNHWVKAIHYGNKDISGGIDQFWLSSTLRISPIEQVRFLKQLYEETLPFDLKNMRTVKRMMVQEEEKHATLYGKTGSGSDIGWYVGFIKHEHKTYILATNIKGTGIEAKDITYRILKKYHLMEASV", "B4": "enzyme (Thermus thermophilus, UniProt Q72J81); chain MEVKRIGVVGAGQMGSGIAQVAASAGYEVVLVDVAESFLERGLAAIRRSLGKFLEKGKITQEAHDEALGRIRTSLSLEDLKDADLIVEAIVEDEGEKRRLFERLGALAKPEAILASNTSSIPITALARYSGRPERFIGMHFFNPVPLMQLVEVIRGELTSEATRDVVVEVARRMGKTPLEVQDYPGFISNRLLMPMINEAIEALREGVATKEAIDGIMRLGMNHPMGPLELADFIGLDTCLAIMEVLHRGFGDDKYRPSPLLRRMVQAGLLGRKAGRGFYTYDEKGNKVG", "B5": "protein P94L (Streptomyces coelicolor, UniProt P16544); chain MATQDSEVALVTGATSGIGLEIARRLGKEGLRVFVCARGEEGLRTTLKELREAGVEADGRTCDVRSVPEIEALVAAVVERYGPVDVLVNNAGRLGGGATAELADELWLDVVETNLTGVFRVTKQVLKAGGMLERGTGRIVNIASTGGKQGVVHAAPYSASKHGVVGFTKALGLELARTGITVNAVCPGFVETPMAASVREHYSDIWEVSTEEAFDRITARVPIGRYVQPSEVAEMVAYLIGPGAAAVTAQALNVCGGLGNY", "B6": "alanine racemase H166F (Geobacillus stearothermophilus, UniProt P10724); chain MNDFHRDTWAEVDLDAIYDNVENLRRLLPDDTHIMAVVKANAYGHGDVQVARTALEAGASRLAVAFLDEALALREKGIEAPILVLGASRPADAALAAQQRIALTVFRSDWLEEASALYSGPFPIHFHLKMDTGMGRLGVKDEEETKRIVALIERHPHFVLEGLYTFFATADEVNTDYFSYQYTRFLHMLEWLPSRPPLVHCANSAASLRFPDRTFNMVRFGIAMYGLAPSPGIKPLLPYPLKEAFSLHSRLVHVKKLQPGEKVSYGATYTAQTEEWIGTIPIGYADGWLRRLQHFHVLVDGQKAPIVGRICMDQCMIRLPGPLPVGTKVTLIGRQGDEVISIDDVARHLETINYEVPCTISYRVPRIFFRHKRIMEVRNAIGRGESSA", "B7": "enzyme (Staphylococcus aureus, UniProt Q2FXA5); chain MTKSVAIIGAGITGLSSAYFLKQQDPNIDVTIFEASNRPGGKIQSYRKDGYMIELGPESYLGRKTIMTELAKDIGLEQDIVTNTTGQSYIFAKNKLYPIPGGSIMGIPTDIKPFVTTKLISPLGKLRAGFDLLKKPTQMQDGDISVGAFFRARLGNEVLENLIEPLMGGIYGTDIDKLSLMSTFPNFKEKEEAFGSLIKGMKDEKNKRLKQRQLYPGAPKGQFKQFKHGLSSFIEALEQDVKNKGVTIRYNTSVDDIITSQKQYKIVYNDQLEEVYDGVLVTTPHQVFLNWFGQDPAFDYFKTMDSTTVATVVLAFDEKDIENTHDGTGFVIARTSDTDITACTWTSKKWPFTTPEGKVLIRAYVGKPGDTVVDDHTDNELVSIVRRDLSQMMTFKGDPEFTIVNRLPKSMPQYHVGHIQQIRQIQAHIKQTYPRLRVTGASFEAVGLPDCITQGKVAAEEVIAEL", "B8": "cyc1 F96Y (Streptomyces coelicolor, UniProt Q9K499); chain MHAFPHGTTATPTAIAVPPSLRLPVIEAAFPRQLHPYWPKLQETTRTWLLEKRLMPADKVEEYADGLCYTDLMAGYYLGAPDEVLQAIADYSAWFYVWDDRHDRDIVHGRAGAWRRLRGLLHTALDSPGDHLHHEDTLVAGFADSVRRLYAFLPATWNARFARHFHTVIEAYDREFHNRTRGIVPGVEEYLELRRLTFAHWIWTDLLEPSSGCELPDAVRKHPAYRRAALLSQEFAAWYNDLCSLPKEIAGDEVHNLGISLITHHSLTLEEAIGEVRRRVEECITEFLAVERDALRFADELADGTVRGKELSGAVRANVGNMRNWFSSVYWFHHESGRYMVDSWDDRSTPPYVNNEAAGEK", "B9": "UGT1A9 (Homo sapiens, UniProt O60656); chain GKLLVVPMDGSHWFTMRSVVEKLILRGHEVVVVMPEVSWQLGRSLNCTVKTYSTSYTLEDLDREFKAFAHAQWKAQVRSIYSLLMGSYNDIFDLFFSNCRSLFKDKKLVEYLKESSFDAVFLDPFDNCGLIVAKYFSLPSVVFARGILCHYLEEGAQCPAPLSYVPRILLGFSDAMTFKERVRNHIMHLEEHLLCHRFFKNALEIASEILQTPVTEYDLYSHTSIWLLRTDFVLDYPKPVMPNMIFIGGINCHQGKPLPMEFEAYINASGEHGIVVFSLGSMVSEIPEKKAMAIADALGKIPQTVLWRYTGTRPSNLANNTILVKWLPQNDLLGHPMTRAFITHAGSHGVYESICNGVPMVMMPLFGDQMDNAKRMETKGAGVTLNVLEMTSEDLENALKAVINDKSYKENIMRLSSLHKDRPVEPLDLAVFWVEFVMRHKGAPHLRPAAHDLTWYQYHSLDVIGFLLAVVLTVAFITFKCCAYGYRKCLGKKGRVKKAHKSKTH", "B10": "PduO F112H (Limosilactobacillus reuteri, UniProt Q50EJ2); chain MKIYTKNGDKGQTRIIGKQILYKNDPRVAAYGEVDELNSWVGYTKSLINSHTQVLSNELEEIQQLLFDCGHDLATPADDERHSFKFKQEQPTVWLEEKIDNYTQVVPAVKKHILPGGTQLASALHVARTITRRAERQIVQLMREEQINQDVLIFINRLSDYFFAAARYANYLEQQPDMLYRNSKDVFR", "note": "Each line is one published result; not all experiments were run side by side. Values joined by “and” are separate records of one study, mostly repeats; a detail may differ.", "chain of UniProt P51687 (whole entry, looked up)": "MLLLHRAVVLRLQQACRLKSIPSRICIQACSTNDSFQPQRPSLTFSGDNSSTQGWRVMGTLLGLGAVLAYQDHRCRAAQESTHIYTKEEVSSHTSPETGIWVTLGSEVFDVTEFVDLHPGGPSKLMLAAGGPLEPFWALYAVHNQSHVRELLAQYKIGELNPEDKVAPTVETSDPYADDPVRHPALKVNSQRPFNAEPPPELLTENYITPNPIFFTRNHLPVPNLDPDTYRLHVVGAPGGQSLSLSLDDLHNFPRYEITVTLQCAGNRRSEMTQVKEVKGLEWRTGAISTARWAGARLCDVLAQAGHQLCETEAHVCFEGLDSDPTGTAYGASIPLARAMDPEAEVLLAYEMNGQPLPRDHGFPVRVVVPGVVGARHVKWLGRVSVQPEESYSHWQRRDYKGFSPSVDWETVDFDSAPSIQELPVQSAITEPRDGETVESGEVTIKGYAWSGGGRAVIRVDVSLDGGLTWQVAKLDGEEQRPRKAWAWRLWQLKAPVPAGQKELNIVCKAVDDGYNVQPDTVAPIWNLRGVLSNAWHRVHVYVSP"}
{"Molecule": "B1 (GTPBP3 E315A)", "substrate": "Nc1nc2c(ncn2[C@@H]2O[C@H](COP(=O)(O)OP(=O)(O)OP(=O)(O)O)[C@@H](O)[C@H]2O)c(=O)[nH]1", "pH": "pH 8", "temperature": "37 °C", "notes": "KCl 300 mM", "Km": "11.9 µM"}
{"Molecule": "B2 (putA G1011P)", "substrate": "O=C(O)[C@@H]1CCCN1", "pH": "pH 8", "temperature": "23 °C", "Km": "10100 µM"}
{"Molecule": "alanine aminopeptidase (Neisseria meningitidis, UniProt Q9JYV4)", "substrate": "N=C(N)NCCC[C@H](N)C(=O)Nc1ccc2c(CC(N)=O)cc(=O)oc2c1", "pH": "pH 7.5", "temperature": "37 °C", "Km": "64.1 µM"}
{"Molecule": "B3 (enzyme)", "substrate": "C[C@H]1[C@H](NC(=O)/C(=N\\OC(C)(C)C(=O)O)c2csc(N)n2)C(=O)N1S(=O)(=O)O", "pH": "pH 7", "Km": "35 µM"}
{"Molecule": "B4 (enzyme)", "substrate": "NC(=O)c1ccc[n+]([C@@H]2O[C@H](COP(=O)(O)OP(=O)(O)OC[C@H]3O[C@@H](n4cnc5c(N)ncnc54)[C@H](O)[C@@H]3O)[C@@H](O)[C@H]2O)c1", "pH": "pH 7", "temperature": "65 °C", "notes": "cofactor varied", "Km": "186 µM"}
{"Molecule": "B5 (protein P94L)", "substrate": "O[C@H]1CCCc2ccccc21", "pH": "pH 7.4", "notes": "phosphate 400 mM, NADPH 250 µM printed", "added": "NADP+, reverse reaction", "Km": "6570 µM"}
{"Molecule": "B6 (alanine racemase H166F)", "substrate": "C[C@@H](N)C(=O)O", "pH": "pH 9", "temperature": "room temperature", "added": "NAD+ 10 mM", "Km": "3900 µM"}
{"Molecule": "SUOX (Homo sapiens, UniProt P51687)", "substrate": "O=S(O)O", "added": "cytochrome c (horse heart)", "Km": "1 µM"}
{"Molecule": "B7 (enzyme)", "substrate": "Cc1c2[nH]c(c1CCC(=O)O)Cc1[nH]c(c(CCC(=O)O)c1C)Cc1[nH]c(c(CCC(=O)O)c1C)Cc1[nH]c(c(C)c1CCC(=O)O)C2", "pH": "pH 8", "temperature": "37 °C", "Km": "6.7 µM"}
{"Molecule": "B8 (cyc1 F96Y)", "substrate": "CC(C)=CCC/C(C)=C/CC/C(C)=C/CO[P@@](=O)(O)OP(=O)(O)O", "pH": "pH 6.5", "temperature": "30 °C", "added": "MgCl2 10 mM", "Km": "1.8 µM"}
{"Molecule": "B9 (UGT1A9)", "substrate": "O=c1cc(-c2ccc(O)c(O)c2)oc2cc(O)ccc12", "pH": "pH 7.4", "temperature": "37 °C", "Km": "2.44 µM and 6.38 µM and 2.45 µM"}
{"Molecule": "B10 (PduO F112H)", "substrate": "Nc1ncnc2c1ncn2[C@@H]1O[C@H](COP(=O)(O)OP(=O)(O)OP(=O)(O)O)[C@@H](O)[C@H]1O", "pH": "pH 8", "temperature": "37 °C", "notes": "anoxic", "added": "cob(I)alamin", "Km": "2.6 µM"}
{"note": "A few entries again:"}
{"Molecule": "B2 (putA G1011P)", "substrate": "O=C(O)[C@@H]1CCCN1", "pH": "pH 8", "temperature": "23 °C", "Km": "10100 µM"}
{"Molecule": "alanine aminopeptidase (Neisseria meningitidis, UniProt Q9JYV4)", "substrate": "N=C(N)NCCC[C@H](N)C(=O)Nc1ccc2c(CC(N)=O)cc(=O)oc2c1", "pH": "pH 7.5", "temperature": "37 °C", "Km": "64.1 µM"}
